Experimental data gathered from unrelated publications.
Each numbered part is a random draw from the data of one study; scales do not carry over between parts. Values joined by “and” are separate records of one study, mostly repeats; a detail may differ.

Set 1
SMILES: Cc1ncsc1-c1ccc(C(CO)NC(=O)C2CC(O)CN2C(=O)C(C(C)C)n2cc(-c3ccc(COc4c(-c5c(C)c(F)cc6[nH]ncc56)c(C5CC5)cc5c(N6CC7CC6CN7)nc(OC6CCOCC6)nc45)cc3)nn2)cc1 (stereo not drawn)
Effect on: cell growth or viability
Technique: ATP luminescence
Time: 6 days
For T24; 30 nM: viability read 89.9% and 101% and 95%.
The viability was 96.9% and 92.7% and 98.8% and 90.2% (NCI-H358; 1 nM).
It gave 104% and 79.3% and 88.6% and 74.5% for viability (ASPC1; 1 nM).
GP5d; 1 nM — viability: 50.9% and 71.7% and 74.6% and 80.7%.
GP5d; 10 µM — viability: 33.3% and 30.4% and 35.5% and 29.7%.
For LCLC-97TM1; 10 µM: viability read 12.7% and 16.1% and 14.9%.

Set 2
SMILES: C[C@@H]1CN(c2ccc(-c3cc(C(=O)NCCOCCOCCOCCOCCNC(=O)Cn4cc(-c5[nH]cc(C(=O)N[C@@H](CC(N)=O)c6ccc(F)c(Cl)c6)c5-c5ccc(Cl)cc5F)cn4)ccc3F)cc2NC(=O)c2c[nH]c(=O)cc2C(F)(F)F)C[C@H](C)N1C
Effect on: thermal unfolding
Technique: differential scanning fluorimetry
Concentration: 5.5 µM
Reading: higher = more unfolded
DCAF1: DDB1- and CUL4-associated factor 1 (DCAF1, Homo sapiens, UniProt Q9Y4B6)
WDR5: WD repeat-containing protein 5 (WDR5, Homo sapiens, UniProt P61964)
DCAF1; 31 °C — “SYPRO Orange fluorescence”: 8290 a.u.
The “SYPRO Orange fluorescence” was 38700 a.u. (DCAF1; 86.01 °C).
For DCAF1; 39.6 °C: “SYPRO Orange fluorescence” read 10100 a.u.
For WDR5; 77.21 °C: “SYPRO Orange fluorescence” read 15200 a.u.
The “SYPRO Orange fluorescence” was 13700 a.u. (WDR5; 54.81 °C).
WDR5; 64.81 °C — “SYPRO Orange fluorescence”: 7730 a.u.
It gave 6820 a.u. for “SYPRO Orange fluorescence” (WDR5; 70.01 °C).
It gave 16800 a.u. for “SYPRO Orange fluorescence” (DCAF1; 53.21 °C).
The “SYPRO Orange fluorescence” was 8790 a.u. (WDR5; 73.41 °C).
The “SYPRO Orange fluorescence” was 43600 a.u. (WDR5; 88.61 °C).
The “SYPRO Orange fluorescence” was 37900 a.u. (DCAF1; 60.01 °C).

Set 3
SMILES: CC[C@@]1(c2cccc(C(F)(F)F)c2)C2=C(Nc3n[nH]cc31)[C@H](F)C(C)(C)CC2=O (single isomer, unassigned)
Concentration: 1 µM
The remaining binding was 4.5% (Glycogen synthase kinase-3 beta (GSK3B, Homo sapiens, UniProt P49841); binding, competition with immobilised ligand).
Serine/threonine-protein kinase VRK2 (VRK2, Homo sapiens, UniProt Q86Y07); kinase binding, KINOMEscan; baseline: DMSO control — remaining binding: 100%.
Serine/threonine-protein kinase 10 (STK10, Homo sapiens, UniProt O94804); binding, competition with immobilised ligand — remaining binding: 100%.
It gave 100% for remaining binding (Non-receptor tyrosine-protein kinase TYK2, JH1 (TYK2, Homo sapiens, UniProt P29597); binding, competition with immobilised ligand).
It gave 100% for remaining binding (Tyrosine-protein kinase BTK (BTK, Homo sapiens, UniProt Q06187); binding, competition with immobilised ligand).
Ephrin type-B receptor 2 (EPHB2, Homo sapiens, UniProt P29323); kinase binding, KINOMEscan; baseline: DMSO control — remaining binding: 100%.
For Calcium/calmodulin-dependent protein kinase type II subunit gamma (CAMK2G, Homo sapiens, UniProt Q13555); binding, competition with immobilised ligand: remaining binding read 94%.
For Protein kinase C epsilon type (PRKCE, Homo sapiens, UniProt Q02156); kinase binding, KINOMEscan; baseline: DMSO control: remaining binding read 100%.
Phosphatidylinositol 4,5-bisphosphate 3-kinase catalytic subunit gamma isoform (PIK3CG, Homo sapiens, UniProt P48736); binding, competition with immobilised ligand — remaining binding: 100%.
The remaining binding was 100% (Dual specificity tyrosine-phosphorylation-regulated kinase 1B (DYRK1B, Homo sapiens, UniProt Q9Y463); binding, competition with immobilised ligand).
It gave 97% for remaining binding (Mast/stem cell growth factor receptor Kit (KIT, Homo sapiens, UniProt P10721, V559D/V654A); binding, competition with immobilised ligand).
For Mitogen-activated protein kinase 13 (MAPK13, Homo sapiens, UniProt O15264); binding, competition with immobilised ligand: remaining binding read 100%.

Further values, each from its own experiment
The inhibition of `Cc1ccc(O)c(C)c1-c1cnc2[nH]c(-c3cnc(N4CCC5(CC4)CC(N4CCN(c6cc7c(cc6F)c(N6CCC(=O)NC6=O)nn7C)CC4)CO5)nc3)cc2c1C#N` (racemic) is reported as 75.5% and 79.4% (Membrane-associated tyrosine- and threonine-specific cdc2-inhibitory kinase (PKMYT1, Homo sapiens, UniProt Q99640); binding, HTRF; 12.35 nM).
`Cc1ccc(O)c(C)c1-c1cnc2[nH]c(-c3cnc(N4CCC(CN5CCC(c6ccc(NC7CCC(=O)NC7=O)cc6F)CC5)CC4)nc3)cc2c1C#N` (stereo not drawn) gave a clearance of 44.6 mL/min/kg (female CD-1 mouse, plasma; intravenous, 1 mg/kg).
`Cc1ccc(O)c(C)c1-c1cnc2[nH]c(-c3cnc(N4CCC(CN5CCN(c6ccc(NC7CCC(=O)NC7=O)cc6F)CC5)CC4)nc3)cc2c1C#N` (stereo not drawn) has a Papp A→B of 0.31 ×10⁻⁶ cm/s (Caco-2; 2 µM, 2 h, pH 7.4).
For `Cc1ccc(O)c(C)c1-c1cnc2[nH]c(-c3cnc(N4CCC(CCN5CCN(c6ccc(N7CCC(=O)NC7=O)cc6F)CC5)CC4)nc3)cc2c1C#N`, “pCDK1 (Thr14) level” read 11.9 RLU and 13 RLU (HCC1569; in-cell western, measured: CDK1 phospho-Thr14; 1.52 nM).

Excerpt of the above (set 1):
The viability was 96.9% and 92.7% and 98.8% and 90.2% (NCI-H358; 1 nM).
GP5d; 10 µM — viability: 33.3% and 30.4% and 35.5% and 29.7%.
For T24; 30 nM: viability read 89.9% and 101% and 95%.
GP5d; 1 nM — viability: 50.9% and 71.7% and 74.6% and 80.7%.
